Experimental data collected from several papers.
Compare with care: the assays were run in different laboratories.
Cell line: PC-3

| SMILES | assay | conditions | IC50 |
| --- | --- | --- | --- |
| C[C@]1([N+](=O)[O-])C(=O)c2ccccc2O[C@@H]1CC(=O)Nc1ccc2[nH]ccc2c1 | cell growth or viability, SRB | 96 h | 15.8 µM |
| O=C1Nc2ccccc2C1=Cc1cc2ccc(Cl)cc2nc1Cl | cell growth or viability, MTT | 72 h | > 100 µM |
| CCc1c(C)c2ccc(OCC(=O)NNC(=S)Nc3ccccc3)c(C)c2oc1=O | cell growth or viability, MTT | – | > 50 µM |
| COC(=O)c1c(-c2ccc(Cl)cc2)c2n(c1C(=O)OC)CCn1cccc1-2 | cell growth or viability, MTT | 48 h | 83.3 µM |
| O=C1Nc2ccccc2C1=Cc1cc2cc(Br)ccc2nc1Cl | cell growth or viability, MTT | 72 h | > 100 µM |
| N#CC(=Cc1ccc(Cl)cc1Cl)C(=O)Nc1nnc(NC(=O)c2ccccc2)s1 | cell growth or viability, MTT | 48 h | 9.1 µM |
| C[C@]1([N+](=O)[O-])C(=O)c2ccccc2O[C@@H]1CC(N)=O | cell growth or viability, SRB | 96 h | 23.2 µM |
| CN1CCC2(CC1)C/C(=N\N=C\c1ccc(Cl)cc1)c1ccccc1O2 | cell growth or viability, MTT | 48 h | 12.7 µM |
| C#Cc1cccc(Nc2ncnc3cc(OCCOC)c(OCCOC)cc23)c1 | cell growth or viability, MTT | – | 12.3 µM |
| COc1cc2cc(C=C3C(=O)Nc4ccccc43)c(Cl)nc2cc1OC | cell growth or viability, MTT | 72 h | > 100 µM |
| C=CCc1ccc(OCc2nnc(SCC(=O)N3CCOCC3)o2)c(OC)c1 | cell growth or viability, MTT | 72 h | 20.3 µM |
| N=c1oc2ccccc2cc1C(=O)Nc1nnc(NC(=O)c2ccccc2)s1 | cell growth or viability, MTT | 48 h | 21 µM |
| COc1cccc(-c2c3n(c4c(=O)[nH]nc(O)c24)CCn2cccc2-3)c1 | cell growth or viability, MTT | 48 h | 79 µM |
| C=CCc1ccc(OCc2nnc(SCC(=O)Nc3cccc(C)c3)o2)c(OC)c1 | cell growth or viability, MTT | 72 h | 24.3 µM |
| C[C@]1([N+](=O)[O-])C(=O)c2ccccc2O[C@@H]1CC(=O)NC12CC3CC(CC(C3)C1)C2 | cell growth or viability, SRB | 96 h | 3.09 µM |
| N#CC(C(=O)Nc1nnc(NC(=O)c2ccccc2)s1)=C1Nc2ccccc2N1 | cell growth or viability, MTT | 48 h | 81.8 µM |
| C=CCOc1ccc2c(C)c(CC)c(=O)oc2c1C | cell growth or viability, MTT | – | > 50 µM |
| N#CC(=Cc1ccco1)C(=O)Nc1nnc(NC(=O)c2ccccc2)s1 | cell growth or viability, MTT | 48 h | 13.3 µM |
| COc1ccc2c(c1)C(=O)[C@](C)([N+](=O)[O-])[C@@H](CC(=O)NC13CC4CC(CC(C4)C1)C3)O2 | cell growth or viability, SRB | 96 h | 6.77 µM |
| COC(=O)c1c(-c2ccc(F)cc2)c2n(c1C(=O)OC)CCn1cccc1-2 | cell growth or viability, MTT | 48 h | 89.7 µM |
| Cc1cc2cc(C=C3C(=O)Nc4ccccc43)c(Cl)nc2cc1C | cell growth or viability, MTT | 72 h | > 100 µM |
| CCCCCCCCNC(=O)C[C@H]1Oc2ccccc2C(=O)[C@]1(C)[N+](=O)[O-] | cell growth or viability, SRB | 96 h | 4.83 µM |

| SMILES | assay | conditions | IC50 |
| --- | --- | --- | --- |
| CN1CCC2(CC1)C/C(=N\N=C\c1ccc(O)cc1)c1ccccc1O2 | cell growth or viability, MTT | 48 h | 2.37 µM |
| COC(=O)c1c(-c2ccccc2F)c2n(c1C(=O)OC)CCn1cccc1-2 | cell growth or viability, MTT | 48 h | 89.1 µM |
| C[C@]1([N+](=O)[O-])C(=O)c2cccc(F)c2O[C@@H]1CC(=O)NC12CC3CC(CC(C3)C1)C2 | cell growth or viability, SRB | 96 h | 3.02 µM |
| Cc1c(Cc2ccccc2)c(=O)oc2c(C)c(OCC(=O)NN=Cc3ccc([N+](=O)[O-])cc3)ccc12 | – | – | 12.1 µM |
| N#CC(C(=O)Nc1nnc(NC(=O)c2ccccc2)s1)=C1SC(=O)CN1c1ccccc1 | cell growth or viability, MTT | 48 h | > 100 µM |
| CN(C)C/C=C/C(=O)Nc1cc2c(Nc3ccc(F)c(Cl)c3)ncnc2cc1O[C@H]1CCOC1 | cell growth or viability, MTT | 48 h | 7.98 µM |
| Cc1ccc(-c2cc(-c3ccc(Cl)cc3)c3c(=O)[nH]c(=O)[nH]c3n2)cc1 | cell growth or viability, MTT | 48 h | > 10 µM |
| O=C1Nc2ccccc2C1=Cc1cc2ccc3ccccc3c2nc1Cl | cell growth or viability, MTT | 72 h | > 100 µM |
| CC(=NNC(=O)COc1ccc2c(C)c(Cc3ccccc3)c(=O)oc2c1C)c1ccc(Br)cc1 | cell growth or viability, MTT | – | 3.56 µM |
| COC(=O)c1c(-c2cccc(Cl)c2)c2n(c1C(=O)OC)CCn1cccc1-2 | cell growth or viability, MTT | 48 h | 67.2 µM |
| CN(C)C(=O)C[C@H]1Oc2ccccc2C(=O)[C@]1(C)[N+](=O)[O-] | cell growth or viability, SRB | 96 h | > 50 µM |
| COc1cc([C@@H]2c3cc4c(cc3[C@@H](O[C@@H]3O[C@@H]5CO[C@@H](C)O[C@H]5[C@H](O)[C@H]3O)[C@H]3COC(=O)[C@H]23)OCO4)cc(OC)c1O | cell growth or viability, MTT | 48 h | 32.1 µM |
| N#Cc1c(Nc2ccccc2)n2nc(NC(=O)c3ccccc3)sc2nc1=O | cell growth or viability, MTT | 48 h | 10.5 µM |
| COC(=O)c1c(-c2ccccc2C)c2n(c1C(=O)OC)CCn1cccc1-2 | cell growth or viability, MTT | 48 h | 64.8 µM |
| CCCOc1ccc2c(C)c(CC)c(=O)oc2c1C | cell growth or viability, MTT | – | > 50 µM |
| C[C@]1([N+](=O)[O-])C(=O)c2cc(Cl)ccc2O[C@@H]1CC(=O)NC12CC3CC(CC(C3)C1)C2 | cell growth or viability, SRB | 96 h | 3.07 µM |
| N#CCC(=O)Nc1nnc(NC(=O)c2ccccc2)s1 | cell growth or viability, MTT | 48 h | 39.2 µM |
| Cc1c(Cc2ccccc2)c(=O)oc2c(C)c(OCC(=O)NN=Cc3ccc(Cl)cc3)ccc12 | cell growth or viability, MTT | – | > 50 µM |
| N#CC(C(=O)Nc1nnc(NC(=O)c2ccccc2)s1)=C1Oc2cccnc2O1 | cell growth or viability, MTT | 48 h | 31.4 µM |
| COC(=O)c1c(-c2cccc(Br)c2)c2n(c1C(=O)OC)CCn1cccc1-2 | cell growth or viability, MTT | 48 h | 80.7 µM |
| C=CCc1ccc(OCc2nnc(SCC(=O)N3CCCCC3)o2)c(OC)c1 | cell growth or viability, MTT | 72 h | 125 µM |

Repeated from above:
| SMILES | assay | conditions | IC50 |
| --- | --- | --- | --- |
| N#CC(=Cc1ccco1)C(=O)Nc1nnc(NC(=O)c2ccccc2)s1 | cell growth or viability, MTT | 48 h | 13.3 µM |
| CCCCCCCCNC(=O)C[C@H]1Oc2ccccc2C(=O)[C@]1(C)[N+](=O)[O-] | cell growth or viability, SRB | 96 h | 4.83 µM |
| COc1ccc2c(c1)C(=O)[C@](C)([N+](=O)[O-])[C@@H](CC(=O)NC13CC4CC(CC(C4)C1)C3)O2 | cell growth or viability, SRB | 96 h | 6.77 µM |
| C=CCc1ccc(OCc2nnc(SCC(=O)N3CCOCC3)o2)c(OC)c1 | cell growth or viability, MTT | 72 h | 20.3 µM |
| COc1cc2cc(C=C3C(=O)Nc4ccccc43)c(Cl)nc2cc1OC | cell growth or viability, MTT | 72 h | > 100 µM |
| C=CCc1ccc(OCc2nnc(SCC(=O)N3CCCCC3)o2)c(OC)c1 | cell growth or viability, MTT | 72 h | 125 µM |
| CCCOc1ccc2c(C)c(CC)c(=O)oc2c1C | cell growth or viability, MTT | – | > 50 µM |
